Published values gathered from unrelated publications.
Each numbered part is a random draw from the data of one study; scales do not carry over between parts.
UniProt Q96GD4, sequence (whole entry, looked up): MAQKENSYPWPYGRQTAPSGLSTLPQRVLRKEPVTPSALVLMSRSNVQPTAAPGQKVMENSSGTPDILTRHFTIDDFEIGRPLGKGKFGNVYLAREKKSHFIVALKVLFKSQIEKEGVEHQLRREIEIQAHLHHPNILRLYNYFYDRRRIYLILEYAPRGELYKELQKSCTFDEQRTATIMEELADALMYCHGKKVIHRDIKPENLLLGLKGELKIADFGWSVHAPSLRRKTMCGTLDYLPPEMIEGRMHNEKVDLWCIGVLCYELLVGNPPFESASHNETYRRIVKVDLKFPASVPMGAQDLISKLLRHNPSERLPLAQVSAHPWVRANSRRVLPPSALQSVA
UniProt P50750, sequence (whole entry, looked up): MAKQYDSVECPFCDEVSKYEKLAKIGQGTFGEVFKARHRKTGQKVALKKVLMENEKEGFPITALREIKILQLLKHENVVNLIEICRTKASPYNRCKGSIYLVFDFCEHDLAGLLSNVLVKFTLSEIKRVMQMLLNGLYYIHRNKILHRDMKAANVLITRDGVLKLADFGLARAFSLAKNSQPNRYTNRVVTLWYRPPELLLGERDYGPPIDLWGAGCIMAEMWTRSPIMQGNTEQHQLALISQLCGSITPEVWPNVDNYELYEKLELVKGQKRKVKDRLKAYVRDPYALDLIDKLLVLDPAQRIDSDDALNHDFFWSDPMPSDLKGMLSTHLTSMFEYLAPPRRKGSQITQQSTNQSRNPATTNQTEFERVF
UniProt P42684, sequence (whole entry, looked up): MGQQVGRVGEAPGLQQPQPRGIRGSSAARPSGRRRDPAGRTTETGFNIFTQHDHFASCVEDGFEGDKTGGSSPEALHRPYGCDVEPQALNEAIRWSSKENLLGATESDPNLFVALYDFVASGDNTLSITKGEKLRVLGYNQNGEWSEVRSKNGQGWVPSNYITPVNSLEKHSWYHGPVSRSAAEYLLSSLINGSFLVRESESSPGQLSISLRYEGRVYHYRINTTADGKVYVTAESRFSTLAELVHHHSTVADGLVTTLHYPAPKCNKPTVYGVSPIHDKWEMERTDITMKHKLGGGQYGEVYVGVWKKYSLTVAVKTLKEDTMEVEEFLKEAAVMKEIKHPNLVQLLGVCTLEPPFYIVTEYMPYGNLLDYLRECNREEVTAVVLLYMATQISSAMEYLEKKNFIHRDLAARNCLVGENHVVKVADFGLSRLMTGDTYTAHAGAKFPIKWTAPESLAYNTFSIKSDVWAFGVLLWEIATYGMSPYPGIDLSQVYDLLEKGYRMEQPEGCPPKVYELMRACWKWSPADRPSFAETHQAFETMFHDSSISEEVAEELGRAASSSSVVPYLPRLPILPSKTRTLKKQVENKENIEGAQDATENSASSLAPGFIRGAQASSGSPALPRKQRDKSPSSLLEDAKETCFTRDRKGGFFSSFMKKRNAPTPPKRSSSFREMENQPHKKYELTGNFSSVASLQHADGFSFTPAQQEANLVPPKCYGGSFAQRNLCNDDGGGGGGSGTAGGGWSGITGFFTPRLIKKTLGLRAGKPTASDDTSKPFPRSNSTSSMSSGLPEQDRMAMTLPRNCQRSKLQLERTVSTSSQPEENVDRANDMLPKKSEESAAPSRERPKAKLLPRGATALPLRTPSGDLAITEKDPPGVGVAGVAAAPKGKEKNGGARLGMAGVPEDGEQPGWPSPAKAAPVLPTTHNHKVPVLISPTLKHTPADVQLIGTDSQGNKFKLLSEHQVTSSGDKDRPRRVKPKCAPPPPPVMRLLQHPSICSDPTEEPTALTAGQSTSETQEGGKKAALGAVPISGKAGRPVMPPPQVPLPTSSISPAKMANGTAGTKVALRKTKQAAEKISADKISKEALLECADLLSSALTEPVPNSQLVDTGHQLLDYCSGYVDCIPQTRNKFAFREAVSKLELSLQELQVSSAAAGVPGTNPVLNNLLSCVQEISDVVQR
UniProt Q9UBE8, sequence (whole entry, looked up): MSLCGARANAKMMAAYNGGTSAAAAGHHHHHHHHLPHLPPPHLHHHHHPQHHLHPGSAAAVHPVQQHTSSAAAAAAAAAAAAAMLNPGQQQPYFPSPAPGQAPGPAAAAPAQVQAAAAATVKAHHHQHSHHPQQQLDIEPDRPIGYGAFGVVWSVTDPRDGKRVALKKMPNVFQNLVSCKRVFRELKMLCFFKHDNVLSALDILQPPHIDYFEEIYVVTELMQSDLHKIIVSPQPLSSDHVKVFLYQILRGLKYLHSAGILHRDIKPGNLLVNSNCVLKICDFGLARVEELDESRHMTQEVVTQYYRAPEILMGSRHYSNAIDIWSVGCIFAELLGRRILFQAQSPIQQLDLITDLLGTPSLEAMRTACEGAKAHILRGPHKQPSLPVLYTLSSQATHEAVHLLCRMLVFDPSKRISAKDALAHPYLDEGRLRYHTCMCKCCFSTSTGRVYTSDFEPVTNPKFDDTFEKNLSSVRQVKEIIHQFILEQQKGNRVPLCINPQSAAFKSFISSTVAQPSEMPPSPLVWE
UniProt Q13882, sequence (whole entry, looked up): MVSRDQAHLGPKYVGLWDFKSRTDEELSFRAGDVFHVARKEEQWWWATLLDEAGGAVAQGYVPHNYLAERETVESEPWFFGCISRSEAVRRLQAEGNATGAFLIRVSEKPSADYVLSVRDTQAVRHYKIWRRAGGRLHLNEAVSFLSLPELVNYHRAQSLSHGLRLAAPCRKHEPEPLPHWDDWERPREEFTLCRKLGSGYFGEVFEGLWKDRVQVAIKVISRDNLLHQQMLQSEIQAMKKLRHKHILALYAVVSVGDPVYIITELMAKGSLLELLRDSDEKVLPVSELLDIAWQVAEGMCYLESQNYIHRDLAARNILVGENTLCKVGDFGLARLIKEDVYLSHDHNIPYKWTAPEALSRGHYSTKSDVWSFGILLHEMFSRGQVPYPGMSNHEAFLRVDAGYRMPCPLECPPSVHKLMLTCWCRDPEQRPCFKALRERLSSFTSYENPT
UniProt P22607, sequence (whole entry, looked up): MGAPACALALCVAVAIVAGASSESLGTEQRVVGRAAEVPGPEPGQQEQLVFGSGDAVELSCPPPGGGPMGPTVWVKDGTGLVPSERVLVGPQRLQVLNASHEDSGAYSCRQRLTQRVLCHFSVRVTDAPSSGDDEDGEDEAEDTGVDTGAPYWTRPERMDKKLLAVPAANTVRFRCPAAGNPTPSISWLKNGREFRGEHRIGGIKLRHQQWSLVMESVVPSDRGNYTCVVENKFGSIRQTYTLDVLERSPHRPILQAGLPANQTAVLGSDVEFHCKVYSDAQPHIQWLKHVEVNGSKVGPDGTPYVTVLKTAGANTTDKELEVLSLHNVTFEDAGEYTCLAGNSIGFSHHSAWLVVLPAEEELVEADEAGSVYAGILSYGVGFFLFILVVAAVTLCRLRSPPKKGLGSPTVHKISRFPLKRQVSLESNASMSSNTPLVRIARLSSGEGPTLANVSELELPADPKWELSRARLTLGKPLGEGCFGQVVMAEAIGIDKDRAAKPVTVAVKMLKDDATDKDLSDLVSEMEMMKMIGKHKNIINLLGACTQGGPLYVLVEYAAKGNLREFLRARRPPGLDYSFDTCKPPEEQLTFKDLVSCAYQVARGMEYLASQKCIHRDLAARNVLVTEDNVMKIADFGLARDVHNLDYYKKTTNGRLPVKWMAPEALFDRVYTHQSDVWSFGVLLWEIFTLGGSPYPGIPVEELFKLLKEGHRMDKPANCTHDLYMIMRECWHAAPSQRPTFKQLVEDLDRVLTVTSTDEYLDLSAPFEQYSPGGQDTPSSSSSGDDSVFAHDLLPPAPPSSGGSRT

Set 1
SMILES: O=C(Nc1ccccc1)Nc1cccc(Oc2ccc3nccn3n2)c1
Tested at: 1 µM
target | test | setting | how to read | remaining binding
PTK6 (Homo sapiens, UniProt Q13882) | competitive binding | BRK | – | 100%
FGFR3 (Homo sapiens, UniProt P22607) | competitive binding panel | – | relative to: vehicle | 100%
CDK9 (Homo sapiens, UniProt P50750) | competitive binding panel | – | relative to: vehicle | 100%
PIK3CD (Homo sapiens, UniProt O00329) | competitive binding panel | – | relative to: vehicle | 86%
ABL2 (Homo sapiens, UniProt P42684) | competitive binding panel | – | relative to: vehicle | 69%
CLK4 (Homo sapiens, UniProt Q9HAZ1) | competitive binding panel | – | relative to: vehicle | 100%
Aurora kinase B (AURKB, Homo sapiens, UniProt Q96GD4) | competitive binding panel | – | relative to: vehicle | 92%
MAP4K2 (Homo sapiens, UniProt Q12851) | competitive binding panel | – | relative to: vehicle | 100%
NLK (Homo sapiens, UniProt Q9UBE8) | competitive binding panel | – | relative to: vehicle | 78%

Set 2
Cell line: A-375
Tested at: 100 µM
Time: 36 h
SMILES | viability [%]
CCOc1ccccc1O[C@H](c1ccccc1)[C@H]1CNCCO1 (racemic) | 102
C[C@]12CCC(=O)C=C1C=C[C@@H]1[C@@H]2CC[C@@]2(C)[C@H]1CC[C@@]21CCC(=O)O1 | 61.4
O=C(O)CCn1c2c(c3ccccc31)C[C@H](NS(=O)(=O)c1ccc(F)cc1)CC2 | 103
O=c1cc[nH]c(=O)[nH]1 | 102
NC12CC3CC(CC(C3)C1)C2 | 122
C[C@H](CCC(=O)O)[C@H]1CC[C@H]2[C@@H]3CC[C@@H]4C[C@H](O)CC[C@]4(C)[C@H]3C[C@H](O)[C@]12C | 102
C[C@H](CCC(=O)O)[C@H]1CC[C@H]2[C@@H]3CC[C@@H]4C[C@H](O)CC[C@]4(C)[C@H]3CC[C@]12C | 88.8
CC[C@H](Nc1ncnc2[nH]cnc12)c1nc2cccc(F)c2c(=O)n1-c1ccccc1 | 92.4
c1ccc(CN(CC2=NCCN2)c2ccccc2)cc1 | 80.7

Set 3
Target: Tyrosine-protein kinase Fes/Fps (FES, Homo sapiens, UniProt P07332)
UniProt P07332, sequence (whole entry, looked up): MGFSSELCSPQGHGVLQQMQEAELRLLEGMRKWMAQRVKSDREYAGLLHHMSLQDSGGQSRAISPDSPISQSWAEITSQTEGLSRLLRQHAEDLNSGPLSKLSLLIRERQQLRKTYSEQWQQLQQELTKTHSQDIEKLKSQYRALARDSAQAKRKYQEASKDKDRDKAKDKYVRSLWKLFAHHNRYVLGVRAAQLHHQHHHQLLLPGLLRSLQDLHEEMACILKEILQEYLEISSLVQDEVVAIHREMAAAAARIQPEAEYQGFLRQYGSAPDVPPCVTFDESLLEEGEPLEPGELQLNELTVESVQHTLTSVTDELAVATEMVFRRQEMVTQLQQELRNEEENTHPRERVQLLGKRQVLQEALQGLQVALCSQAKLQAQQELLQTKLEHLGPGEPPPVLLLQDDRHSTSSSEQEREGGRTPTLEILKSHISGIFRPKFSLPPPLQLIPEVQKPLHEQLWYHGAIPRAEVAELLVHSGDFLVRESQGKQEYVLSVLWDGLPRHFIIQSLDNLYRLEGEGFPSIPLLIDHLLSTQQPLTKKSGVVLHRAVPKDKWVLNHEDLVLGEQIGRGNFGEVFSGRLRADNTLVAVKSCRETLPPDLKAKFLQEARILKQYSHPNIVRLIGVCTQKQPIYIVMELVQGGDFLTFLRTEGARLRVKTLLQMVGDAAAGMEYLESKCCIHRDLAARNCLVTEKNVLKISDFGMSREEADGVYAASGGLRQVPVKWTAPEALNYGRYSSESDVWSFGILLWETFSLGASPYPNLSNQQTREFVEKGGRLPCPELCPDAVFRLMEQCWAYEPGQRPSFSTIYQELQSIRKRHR
Read-out: enzyme activity
Mode: inhibitor
Tested at: 0.5 µM
Relative to: control
Structure (SMILES) | remaining activity [%]
COc1cc2ncnc(Nc3ccc(Oc4ccccc4)cc3)c2cc1OC | 99.6
CC(C)[C@H](CO)Nc1nc(Nc2cc(N)cc(Cl)c2)c2ncn(C(C)C)c2n1 | 69.2
COc1ccc(OC)c2c(=S)c3ccccc3[nH]c12 | 102
COc1ccc(C(=O)Nc2sc3c(c2C(N)=O)CCCC3)cc1OC | 102
O=S(=O)(c1cccc2cnccc12)N1CCCNCC1 | 121
CO[C@H]1C[C@@H]2CC[C@@H](C)[C@@](O)(O2)C(=O)C(=O)N2CCCC[C@H]2C(=O)O[C@H]([C@H](C)C[C@@H]2CC[C@@H](O)[C@H](OC)C2)CC(=O)[C@H](C)/C=C(\C)[C@@H](O)[C@@H](OC)C(=O)[C@H](C)C[C@H](C)/C=C/C=C/C=C/1C | 108
O=C(CCCc1ccc(-c2ccccc2F)cc1)Nc1ccc(O)cc1 | 100
O=C1NC(=O)C(c2cn(CCCO)c3ncccc23)=C1c1cnccn1 | 121
CCOC(=O)c1c(C)[nH]c(/C=C2\C(=O)Nc3ccccc32)c1C | 99.3
NCCNc1ncc(C(N)=O)c(Nc2cccc(C(F)(F)F)c2)n1 | 51.5
CN(C)c1ccc(C=C2C(=O)Nc3ccccc32)cc1 | 97.8
Nc1ncnc2n[nH]c(Nc3ccc(F)cc3)c12 | 100
C#Cc1cccc(Nc2ncnc3cc(OCCOC)c(OCCOC)cc23)c1 | 105
Cc1ccc(NC(=O)c2ccc(CN3CCN(C)CC3)cc2)cc1Nc1nc(-c2cccnc2)cs1 | 105
O=C1NC(=O)C(c2cn(CCCn3ccnc3)c3ccccc23)=C1Nc1ccccc1 | 103

Set 4
Target: Calcium/calmodulin-dependent protein kinase type II subunit alpha (CAMK2A, Homo sapiens, UniProt Q9UQM7)
UniProt Q9UQM7, sequence (whole entry, looked up): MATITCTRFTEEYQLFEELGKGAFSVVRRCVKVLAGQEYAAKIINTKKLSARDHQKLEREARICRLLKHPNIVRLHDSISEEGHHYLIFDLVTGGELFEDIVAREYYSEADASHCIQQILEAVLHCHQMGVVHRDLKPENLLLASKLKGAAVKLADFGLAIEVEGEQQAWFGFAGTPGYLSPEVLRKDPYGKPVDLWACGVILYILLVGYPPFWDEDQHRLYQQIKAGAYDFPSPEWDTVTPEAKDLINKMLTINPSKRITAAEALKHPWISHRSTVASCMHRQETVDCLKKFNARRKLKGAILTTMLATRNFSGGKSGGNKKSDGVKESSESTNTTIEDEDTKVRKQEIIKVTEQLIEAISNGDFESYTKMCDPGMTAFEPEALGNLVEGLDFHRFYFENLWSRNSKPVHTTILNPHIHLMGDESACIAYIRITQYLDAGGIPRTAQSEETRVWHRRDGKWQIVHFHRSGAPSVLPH
Read-out: enzyme activity
Mode: inhibitor
Tested at: 10 µM
Structure (SMILES) | inhibition
CC(=O)O[C@@H]1C(=O)C2=C(C(=O)C[C@H]3C(C)(C)C(=O)CC[C@]23C)[C@]2(C)C(=O)C[C@H]([C@H](C)CC(=O)CC(C)C(=O)O)[C@@]12C (stereo partly shown) | -6%
O=c1c(-c2ccc(O)cc2)coc2cc(O[C@@H]3O[C@H](CO)[C@@H](O)[C@H](O)[C@H]3O)cc(O)c12 | -1%
C=C1C[C@]23C[C@@]1(O)CC[C@H]2[C@@]12C=C[C@H](O)[C@@](C)(C(=O)O1)[C@H]2[C@@H]3C(=O)O | 27%
Nc1ncc[nH]1 | -71%
O=Cc1ccc(O)cc1O | 32%
CCCN1C[C@H](C)[C@@H](O)[C@](C)(O)[C@@H](CC)OC(=O)[C@H](C)[C@@H](O[C@H]2C[C@@](C)(OC)[C@@H](O)[C@H](C)O2)[C@H](C)[C@@H](O[C@@H]2O[C@H](C)C[C@H](N(C)C)[C@H]2O)[C@](C)(O)C[C@H]1C | -2%
O=C(O)c1ccc2c(c1)OCO2 | -4%
